Results gathered from unrelated publications.
A part holds a random share of what one study measured.

Sample 1
Target: Ras GTPase-activating protein-binding protein 1, RRM domain (G3BP1, Homo sapiens, UniProt Q13283)
Sequence of UniProt Q13283 (whole entry, looked up): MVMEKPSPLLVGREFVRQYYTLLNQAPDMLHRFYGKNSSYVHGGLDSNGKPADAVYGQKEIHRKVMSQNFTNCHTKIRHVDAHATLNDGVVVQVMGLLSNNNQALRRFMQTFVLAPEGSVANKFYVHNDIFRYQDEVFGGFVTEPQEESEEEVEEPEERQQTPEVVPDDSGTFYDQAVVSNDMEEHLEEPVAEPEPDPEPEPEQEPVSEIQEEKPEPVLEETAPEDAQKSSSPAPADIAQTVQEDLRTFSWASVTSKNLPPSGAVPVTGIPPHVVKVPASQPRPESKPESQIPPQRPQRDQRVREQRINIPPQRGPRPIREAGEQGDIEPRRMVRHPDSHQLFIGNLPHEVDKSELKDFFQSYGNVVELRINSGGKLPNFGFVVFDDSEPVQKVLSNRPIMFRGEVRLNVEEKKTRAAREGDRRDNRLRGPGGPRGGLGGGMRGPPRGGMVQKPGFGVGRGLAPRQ
Technique: RNA Bind-n-Seq
Form: RNA
Matrix: in vitro
Concentration: 1 µM
Notes: whole 134-nt RNA, ends assumed
Together with: 150 mM KCl
Baseline: input library
Direction: higher = stronger binding
For `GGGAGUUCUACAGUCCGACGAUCCACAGACGACACGCACCCACACAGACACAGAGGGAAGGGGUUGGGAUGGGGACAGGGUGCACAGCAGGGCGGGGUAGGACCCCAGCCCCUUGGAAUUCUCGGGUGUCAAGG`, the log2 enrichment was -0.0133.
The log2 enrichment of `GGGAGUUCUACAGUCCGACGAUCCUGUGCUACACAUCGUAUGUACCGAAUCGGCCCCCCCGGGCCCCCCCGGGCCCCCCCGGGGAAAGUAUUAUGUUACGCCGUUCGGAUCUGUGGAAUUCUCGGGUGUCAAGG` is reported as -0.698.
With `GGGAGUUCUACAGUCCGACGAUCCAAGUCCUGUGCUACACAUCGUAUGUACCGAAUCGGUUUGGUUUGGAAAAAAAGGAAAGUAUUAUGUUACGCCGUUCGGAUCUGCACUUCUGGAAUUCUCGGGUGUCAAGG` the log2 enrichment was -0.24.
`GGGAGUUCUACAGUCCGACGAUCCCUCAAGUCCUGUGCUACACAUCGUAUGUACCGAAUCGGCCGGCCGGGGCCGGAAAGUAUUAUGUUACGCCGUUCGGAUCUGCACUUCCAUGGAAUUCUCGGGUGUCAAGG` gave a log2 enrichment of -0.485.
With `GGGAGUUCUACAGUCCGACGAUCAAGUCCUGUGCUACACAUCGUAUGUACCGAAUCAAACCCAAACCCAAACCCCCAAAAAAGUAUUAUGUUACGCCGUUCGGAUCUGCACUUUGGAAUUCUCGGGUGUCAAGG` the log2 enrichment was -0.123.
The log2 enrichment of `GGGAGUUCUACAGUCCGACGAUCACCAUGCAGGUGGGCAUCUUUGGGAAGUGGGGCAAGGGGGGCAUAGGGAGGGGGGUAACACUUUGGGAACAGGUGGUCCCAGGUCGUUUCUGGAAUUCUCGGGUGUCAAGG` is reported as 0.924.
`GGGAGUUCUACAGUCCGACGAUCUGGGAGGUGGAUUUUGUUUAUUUUUUUAGCUCAUUUCCAGGGGUGGGAAUUUUUUUUUAAUAUGUGUCAUGAAUAAAGUUGUUUAUGAAAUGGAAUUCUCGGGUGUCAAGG` gave a log2 enrichment of 1.3.
The log2 enrichment of `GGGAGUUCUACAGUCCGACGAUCGCAGGAAGUAAAAACAAAUGGAAAUGCUUCGGAUAUUGGCAGGGGUGGGGGUUGCUAAGGAAAGGGUGGGAUGGGAGUGGGUAAAGAGUUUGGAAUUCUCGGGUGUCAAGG` is reported as 1.06.
The log2 enrichment of `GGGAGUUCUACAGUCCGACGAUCCCUGUGCUACACAUCGUAUGUACCGAAUCGGGUUUUUUUGGUUUUUUUGGUUUUUUUGGGGAAAGUAUUAUGUUACGCCGUUCGGAUCUGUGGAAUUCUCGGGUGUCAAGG` is reported as -0.358.
`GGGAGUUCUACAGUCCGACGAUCUCCUGUGCUACACAUCGUAUGUACCGAAUCGGGUUUUUGGGUUUUUGGGUUUUUUUGGGAAAGUAUUAUGUUACGCCGUUCGGAUCUGCAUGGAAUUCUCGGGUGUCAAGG` has a log2 enrichment of 0.0295.

Sample 2
Target: Sal-like protein 4, full length isoform B (SALL4, Homo sapiens, UniProt Q9UJQ4-2, residues 1-616)
Technique: universal PBM
Form: double-stranded DNA, one strand shown
Matrix: in vitro
Concentration: not given
Notes: 8-mer, flanks averaged, mean of replicates
Direction: higher = stronger binding
`AGCTCCAT` gave an E-score of 0.0388.
With `ATCCGAAT` the E-score was 0.137.
The E-score of `ATGGAATA` is reported as 0.226.
`CACAGATA` has an E-score of 0.122.
For `AATAAGGG`, the E-score was 0.134.
With `ACCCGGGC` the E-score was -0.379.
For `ACTCTTTC`, the E-score was -0.0261.
`AGTTGAAC` gave an E-score of 0.00403.
`CACGTGTC` has an E-score of -0.0533.
With `AATGCCCT` the E-score was -0.055.
With `AAGCCAGG` the E-score was -0.337.
`CTGCAACA` gave an E-score of -0.0251.
`TGATTCAA` has an E-score of 0.177.
`AGGGCATG` gave an E-score of -0.0459.
`CACAAGTG` has an E-score of -0.0548.
`ACTACACC` has an E-score of 0.0723.
`CACCTGAC` gave an E-score of -0.141.
`GCGCACTA` gave an E-score of -0.128.
`CTAGTGCC` has an E-score of -0.167.
For `ACAGTATC`, the E-score was 0.196.
With `CAGTGGAC` the E-score was -0.102.

Sample 3
Target: RNA binding protein fox-1 homolog 2, RRM domain, GST-SBP tag (RBFOX2, Homo sapiens, UniProt O43251-10, residues 100-194)
Technique: RNA Bind-n-Seq
Form: RNA
Matrix: in vitro
Concentration: 365 nM
Notes: natural RNA segment, single round, ends assumed
Baseline: no-protein control
Direction: higher = stronger binding
Construct (chain): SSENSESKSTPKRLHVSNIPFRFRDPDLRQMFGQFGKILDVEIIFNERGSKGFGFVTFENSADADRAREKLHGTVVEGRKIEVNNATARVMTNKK
`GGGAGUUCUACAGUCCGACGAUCCAUGGCAUGUGCAAGUAGGUCUGCGUGACCCCACUUCUGUGGUGCCGGCCUUACCUCGUCUUCAUCCGUGGUGAGCAGCCUUCGUCAGUCUAGUUGUGUUGAAGCCAAGUUGGAAUUCUCGGGUGCCAA`: “RBNS enrichment (R)” 1.22.
`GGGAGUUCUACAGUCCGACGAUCUCCUGCACAGCACAGGAAGGCUCCACUCCAUGAAGGAGUGCAUUUAGAAUGGCAUCCUGGUCCUGGAUGCAGAUUCUCAAGUAAAAUUGCUGUUAAAUUUCUUCAAGUCCUGGAAUUCUCGGGUGCCAA`: “RBNS enrichment (R)” 0.34.
Under “RBNS enrichment (R)”, `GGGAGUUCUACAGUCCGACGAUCUGUGUCACUGGCAGGAUGCAUCACUCUCCAGGGCCUCUUUUUCGGAGCUACUCCCAAUUCCACUCUUCUGUGAUUCUGGCUGAGCAAGUUCAUGCCGGUAGAGGCUCAUUUGGAAUUCUCGGGUGCCAA` is recorded as 7.81.
`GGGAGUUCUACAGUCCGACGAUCUUAUUAAAAGCAAGUUUCUUUGUAUUCCUCACCCUAGAUUUGUAUAAAUGCCUUUUUGUCCAUCCCUUUUUUCUUUGUUGUUUUUGUUGAAAACAAACUGGAAACUUGUUUGGAAUUCUCGGGUGCCAA`: “RBNS enrichment (R)” 0.451.
`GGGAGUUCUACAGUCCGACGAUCCCCUGACUCUGGCUAAAAUUAUCUAAUUUCCAGAUGCUUUUGUAGAUGACUGAAGUAUUUGUGAGCCACAUAUUGGGAGUUCUAGAUUUGAGUGAAUGGCAGGAAAGGGCUGGAAUUCUCGGGUGCCAA`: “RBNS enrichment (R)” 0.52.
Under “RBNS enrichment (R)”, `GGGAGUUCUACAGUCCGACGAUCUUCUCACUGAGUCUAUUGUUUGUCUUCACAUUGCUGAUGGAACGAAAUGUUGACACUCAGUGAUGUGCUGUGCAUCUUGAGGUCAGCAGGCACUAACCUGGCACCUUUUAUGGAAUUCUCGGGUGCCAA` is recorded as 0.6.
For `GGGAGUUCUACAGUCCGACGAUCAAGCCAAACGCUUCUGUCCUCUUUCCUUCUGCAUUAACCCUUUGCUGAUCCUCAGGGGCCACUCCCCCAACACCCCUGUACUUGGGUGAGGGAUGUUGGACAGAGCCUGUUGGAAUUCUCGGGUGCCAA`, “RBNS enrichment (R)” read 0.581.
`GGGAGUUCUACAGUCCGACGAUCAAAUCAGGAACUUUUUUCUAACAAUUUGCUUUUGAAACUUGAAGUCAAGGAAACAGUGUGGUGCAAGUACUGCUGUUCUAGCCCCCAAAGAGUUUUCUGUACAAAAUUUUUGGAAUUCUCGGGUGCCAA` — result for “RBNS enrichment (R)”: 0.545.
`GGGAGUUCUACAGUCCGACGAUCGUUUCUUUUUGUCUCCCCCACUAUUCAAGGACUCUCCUCUUUACCAAGAAGCACAGAAUUCUGCUGGGCCUUUGCUUGUUUAUUUUGCUUCCCGACUCUUCUCUUGGGGGUGGAAUUCUCGGGUGCCAA`: “RBNS enrichment (R)” 0.818.
`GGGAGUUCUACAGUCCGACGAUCAAGACAAGUGAAACUGGGUGCAAGCUAAAAUUUUUAAAUGGUGUGGAGACUCGAAUGAUACCAAGAUAAUACAGAUAUUAUUAAGAAUUUUUUUGUGUUGAGGUGAUGUAUGGAAUUCUCGGGUGCCAA` — result for “RBNS enrichment (R)”: 1.61.
For `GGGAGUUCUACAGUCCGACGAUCCUGGAAACGAUGAGAUUCCACAGACCCCCUAUGGGGGACCCACAACCCAAGACCGCAGACUGGGUGUAAGGGAUGCCCGGAACACCCUGACCAGGCCCCUCCCCUAAGACUGGAAUUCUCGGGUGCCAA`, “RBNS enrichment (R)” read 0.443.
For `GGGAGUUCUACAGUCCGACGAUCAAAUUAAGAUUUCCUUAACCUUAACCUUAAAAUUGAUAUUAUAUUAAACAUACAUAAUACAAUGUAACUCCACUGUUCUCCUGAAUAUUUUUUGCUCUAAUCUCUCUGCCUGGAAUUCUCGGGUGCCAA`, “RBNS enrichment (R)” read 0.955.

Sample 4
Target: Interferon regulatory factor 5, full length, phosphomimetic (IRF5, Homo sapiens, UniProt Q13568-2, residues 1-514, S451D/S453D/S456D/S462D)
Technique: protein-binding microarray
Form: double-stranded DNA, one strand shown
Matrix: in vitro
Concentration: 940 nM top
Notes: 60-bp whole probe
Together with: salmon DNA 0.4 mg/ml
Baseline: random background probes
Direction: higher = stronger binding
Constant ends, left off below: GCCTAGCAC … GTCTTGATTCGCTTGACGCTGCTG
Under “fitted relative affinity”, `TCAAGCATGGATCTGGGACTGTGCTAG` is recorded as -0.829 z-score.
For `AACCATTTTGGTTTTCCTTAGTGCTAG`, “fitted relative affinity” read 0.782 z-score.
For `TTAGATATTGGGACTGGATTAGTGCTA`, “fitted relative affinity” read 0.0679 z-score.
`TTAGATTTCGGGTTTTGATTAGTGCTA`: “fitted relative affinity” 1.53 z-score.
`CACTGACACCGATTTCATCACGTGCTA` — result for “fitted relative affinity”: 0.291 z-score.
For `CACGATTTCAGTCTCGAGACGTGCTAG`, “fitted relative affinity” read 2.07 z-score.
Under “fitted relative affinity”, `TCAGCTTTCTTTATGTAACTGTGCTAG` is recorded as 0.604 z-score.
Under “fitted relative affinity”, `TCAAGACTTGATTTTGGACTGTGCTAG` is recorded as -0.654 z-score.
`CATAGAGATGCCTGTCCTCTGTGCTAG`: “fitted relative affinity” -0.639 z-score.
`TCAGTTTTACTTTCTATACTGTGCTAG` — result for “fitted relative affinity”: 2.93 z-score.
Under “fitted relative affinity”, `TTAGACATCGGGACTGGATTAGTGCTA` is recorded as -0.324 z-score.
`TCAGTTTTACAATTTGCACTGTGCTAG` — result for “fitted relative affinity”: 0.386 z-score.
For `ATAGGTTTCCTTCTCCTTTAGTGCTAG`, “fitted relative affinity” read 1.87 z-score.
Under “fitted relative affinity”, `TTAGCTTTCGACTATCGGTTAGTGCTA` is recorded as 3.26 z-score.
`TCAGCTCTGATGTTGGGACTGTGCTAG`: “fitted relative affinity” -0.674 z-score.
`ATTTTTCTAATTTACTTTGGGTGCTAG`: “fitted relative affinity” 0.566 z-score.
`TTAGATATCGGTCTCGATTAGTGCTAG` — result for “fitted relative affinity”: 2.61 z-score.

Excerpt of the above (sample 3):
`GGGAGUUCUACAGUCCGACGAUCUCCUGCACAGCACAGGAAGGCUCCACUCCAUGAAGGAGUGCAUUUAGAAUGGCAUCCUGGUCCUGGAUGCAGAUUCUCAAGUAAAAUUGCUGUUAAAUUUCUUCAAGUCCUGGAAUUCUCGGGUGCCAA`: “RBNS enrichment (R)” 0.34.
Under “RBNS enrichment (R)”, `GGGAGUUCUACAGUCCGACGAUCUGUGUCACUGGCAGGAUGCAUCACUCUCCAGGGCCUCUUUUUCGGAGCUACUCCCAAUUCCACUCUUCUGUGAUUCUGGCUGAGCAAGUUCAUGCCGGUAGAGGCUCAUUUGGAAUUCUCGGGUGCCAA` is recorded as 7.81.
`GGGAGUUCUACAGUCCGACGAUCUUAUUAAAAGCAAGUUUCUUUGUAUUCCUCACCCUAGAUUUGUAUAAAUGCCUUUUUGUCCAUCCCUUUUUUCUUUGUUGUUUUUGUUGAAAACAAACUGGAAACUUGUUUGGAAUUCUCGGGUGCCAA`: “RBNS enrichment (R)” 0.451.
`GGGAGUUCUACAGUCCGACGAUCCCCUGACUCUGGCUAAAAUUAUCUAAUUUCCAGAUGCUUUUGUAGAUGACUGAAGUAUUUGUGAGCCACAUAUUGGGAGUUCUAGAUUUGAGUGAAUGGCAGGAAAGGGCUGGAAUUCUCGGGUGCCAA`: “RBNS enrichment (R)” 0.52.
Under “RBNS enrichment (R)”, `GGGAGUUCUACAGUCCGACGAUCUUCUCACUGAGUCUAUUGUUUGUCUUCACAUUGCUGAUGGAACGAAAUGUUGACACUCAGUGAUGUGCUGUGCAUCUUGAGGUCAGCAGGCACUAACCUGGCACCUUUUAUGGAAUUCUCGGGUGCCAA` is recorded as 0.6.
